Results collected from several papers.
Parts stem from different laboratories: compare values within a part only. Positions count from the first letter of the parent shown.
Sequence of UniProt Q15418 (whole entry, looked up): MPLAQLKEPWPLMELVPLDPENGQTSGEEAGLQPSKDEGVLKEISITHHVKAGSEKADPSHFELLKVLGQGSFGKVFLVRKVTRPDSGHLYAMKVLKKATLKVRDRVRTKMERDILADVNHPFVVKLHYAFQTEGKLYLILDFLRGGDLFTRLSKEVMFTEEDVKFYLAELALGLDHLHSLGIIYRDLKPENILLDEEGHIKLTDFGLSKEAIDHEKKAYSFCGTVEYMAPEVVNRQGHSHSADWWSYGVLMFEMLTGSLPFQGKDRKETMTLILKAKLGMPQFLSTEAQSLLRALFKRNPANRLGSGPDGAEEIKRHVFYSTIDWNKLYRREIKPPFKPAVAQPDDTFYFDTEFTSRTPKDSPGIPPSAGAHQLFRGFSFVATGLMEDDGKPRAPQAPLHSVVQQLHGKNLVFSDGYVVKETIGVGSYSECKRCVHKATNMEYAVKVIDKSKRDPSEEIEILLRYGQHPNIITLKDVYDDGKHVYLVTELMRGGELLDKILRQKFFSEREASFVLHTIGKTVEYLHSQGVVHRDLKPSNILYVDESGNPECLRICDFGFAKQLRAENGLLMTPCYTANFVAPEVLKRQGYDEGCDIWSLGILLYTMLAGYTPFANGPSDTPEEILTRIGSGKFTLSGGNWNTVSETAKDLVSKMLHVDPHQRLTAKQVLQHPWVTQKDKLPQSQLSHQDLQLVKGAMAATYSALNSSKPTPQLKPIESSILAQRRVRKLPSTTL

Sample 1
Target: ABI1, truncated, D143A, DHFR fusion (Arabidopsis thaliana, UniProt P49597)
Technique: DHFR PCA, dose-response
Sample: yeast
Notes: Hill fit, mean, not affinity
With: (+)-ABA, dose series
Reading: lower = more sensitive
Parent: PYL1, truncated, DHFR fusion (Arabidopsis thaliana, UniProt Q8VZS8); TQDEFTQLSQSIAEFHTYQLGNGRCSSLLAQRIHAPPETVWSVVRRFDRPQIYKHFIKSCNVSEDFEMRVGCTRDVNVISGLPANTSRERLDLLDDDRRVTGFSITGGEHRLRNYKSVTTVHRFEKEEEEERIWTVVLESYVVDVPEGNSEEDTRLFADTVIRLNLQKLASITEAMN
| Change | ABA EC50 |
| --- | --- |
| I52F | 4.38 µM |
| I12H | 76.8 µM |
| N77I | 3.71 µM |
| Q167V | 6.46 µM |
| T17L | 23.7 µM |
| V62W | 49.6 µM |
| F103W | 82.2 µM |
| R123F | 22.9 µM |

Sample 2
Target: CCND1, cyclin fold, Cln2 fusion (human)
Technique: yeast growth competition, sequencing
Sample: yeast
Notes: strong parent motif
Relative to: not given
Reading: higher = stronger binding
Parent: RBL2 docking peptide (human); STTRRRLFVENDS
| Change | normalised enrichment score |
| --- | --- |
| STTRRRLFVENKS [D12K] | 0.406 |
| STTRTRLFVENDS [R5T] | 0.391 |
| STTDRRLFVENDS [R4D] | -0.307 |
| STTKRRLFVENDS [R4K] | 0.533 |
| STTRRRLFDENDS [V9D] | 0.921 |
| STTRRRLFVENES [D12E] | 0.258 |
| SDTRRRLFVENDS [T2D] | 1.12 |
| STTRRRLFVEQDS [N11Q] | 0.862 |

Other studies, line by line
| Substance | target | test | test system | setting | how to read | quantity | value |
| --- | --- | --- | --- | --- | --- | --- | --- |
| PhoQ, residues 284 288 289 292 302 303 SLGVVW | PhoP, residues 12 14 15 18 19 NHTVL (Escherichia coli, UniProt P23836) | Sort-seq, measured: YFP reporter | E. coli | PhoQ-PhoP variant library, with: 10 µM Mg2+ | relative to: high Mg2+ state, higher = stronger signaling | fold induction | 5.56 |
| FC(F)(F)c1ccc2c(c1)nc(-c1cccnc1)n2C1CC1 | Ribosomal protein S6 kinase alpha-1, C-terminal kinase domain (RPS6KA1, Homo sapiens, UniProt Q15418) | cell-free assay, competition with immobilised ligand | – | 1 µM | – | remaining binding | 100% |

Some of these lines once more (sample 1):
| Change | ABA EC50 |
| --- | --- |
| Q167V | 6.46 µM |
| T17L | 23.7 µM |
